Measurements from different studies.
A part holds a random share of what one study measured. Substitutions count along the parent as printed.

Study 1 — technique: aptamer microarray, sandwich; molecule type: DNA with 2'F-ANA; matrix: in vitro; concentration: 200 nM; together with: Cy3 exosite-II aptamer, 400 nM; reading: higher = stronger binding; sequence: GGTTGGTGTGGTTGG
Target: Prothrombin, mature alpha-thrombin (F2, Homo sapiens, UniProt P00734)
Setting: whole 15-mer aptamer, many near background
Modification | mean fluorescence intensity [a.u.]
2'F-ANA at 1 3 4 5 11 12 14 | 43.7
2'F-ANA at 3 4 5 6 7 11 12 13 15 | 98
2'F-ANA at 2 4 9 11 13 14 | 79.8
2'F-ANA at 2 3 5 7 8 11 15 | 93.3
2'F-ANA at 2 4 6 7 8 11 12 13 14 | 115
2'F-ANA at 2 3 4 5 6 7 8 9 11 15 | 75.5
2'F-ANA at 2 4 5 7 13 14 | 42.9
2'F-ANA at 2 5 6 11 12 13 14 15 | 49.2
2'F-ANA at 1 4 7 8 9 11 12 14 | 112
2'F-ANA at 1 2 4 7 8 10 11 | 52.9
2'F-ANA at 2 4 5 6 7 9 10 13 | 46.9
2'F-ANA at 3 4 9 10 12 14 | 206
2'F-ANA at 2 3 4 7 11 12 13 | 649
2'F-ANA at 2 5 9 10 11 13 | 66.4
2'F-ANA at 1 2 3 5 8 9 10 11 13 | 53.6
2'F-ANA at 2 5 8 9 13 | 63.8
2'F-ANA at 2 4 5 7 8 9 10 12 13 | 49.5
2'F-ANA at 3 6 7 10 13 14 | 461

Study 2 — technique: protein binding microarray; molecule type: double-stranded DNA, one strand shown; matrix: in vitro; concentration: not given; baseline: not given; reading: higher = stronger binding
Target: Histone acetyltransferase KAT6A, both winged helices, GST fusion (KAT6A, Homo sapiens, UniProt Q92794, residues 1-181)
Setting: 8-mer, flanks averaged, mean of 2 arrays, mostly near background
Residues (chain): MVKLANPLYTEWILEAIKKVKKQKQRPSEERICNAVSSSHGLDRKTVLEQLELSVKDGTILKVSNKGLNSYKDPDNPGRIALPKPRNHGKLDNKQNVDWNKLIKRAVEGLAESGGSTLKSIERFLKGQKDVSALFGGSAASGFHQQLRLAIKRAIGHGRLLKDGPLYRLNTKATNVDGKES
Sequence | E-score
CTAAGCTC | -0.189
AACTGTTA | 0.0805
AAACGGCC | 0.256
ATATGTTC | 0.0358
TCAGGTAA | -0.263
AGAGTTAA | -0.271
AATATGAA | -0.0221
CAGCACTC | -0.118
ATATGTCG | 0.00334
GCGCCAAC | 0.234
GACGTAAC | -0.079
CTTCCACA | -0.163
ACTAATTG | -0.101
AGTGGGGG | -0.281
AACAGTCA | -0.0227
AAATAGCC | 0.0589
CAAGTTGA | -0.146
AAAAGTCC | 0.0818
GGTATGAC | 0.084
AATTAACT | -0.123
CGTTTCAC | 0.133
TACTCAAA | -0.0325
CGAAGATC | -0.00579
TAATAGTA | -0.0652
GTTTGACA | -0.0405

Study 3 — target: CCNE2, cyclin fold, Cln2 fusion (human); technique: yeast growth competition, sequencing; matrix: yeast; setting: strong parent motif; baseline: not given; reading: higher = stronger binding
Starting sequence: INSM1 docking peptide (human); PKAIRKLHFEDEV
Change | normalised enrichment score
K2N | 1.74
K6N | 0.462
R5M | 0.218
K2W | 0.585
K2I | 0.625
A3L | 0.212
E12V | 1.72
E10D | 1.31
D11T | 1.05
E12D | 1.58
F9T | 0.152
R5C | 0.168
R5Q | 0.0718
L7D | -0.0103
K2P | 1.07
I4D | -0.0596
K6D | 0.0497
A3T | 0.513
L7C | 0.389
K6W | 0.756
A3C | 2.07
I4C | 2.81
D11L | 1.38

Study 4 — technique: protein-binding microarray; molecule type: double-stranded DNA, one strand shown; matrix: in vitro; concentration: 250 nM; setting: 60-bp whole probe; together with: salmon DNA 0.4 mg/ml; baseline: random background probes; reading: higher = stronger binding; all sequences stand within: GCCTAGCAC … GTCTTGATTCGCTTGACGCTGCTG
Target: Interferon regulatory factor 5, full length, phosphomimetic (IRF5, Homo sapiens, UniProt Q13568-2, residues 1-514, K96S/S451D/S453D/S456D/S462D)
Sequence | log fluorescence
GACGGTACCGGGTTTCGGGACGTGCTA | 2.12 z-score
TTAGGTATCCTCTTCCTTTAGTGCTAG | 0.163 z-score
TTAGGACTGGGACTGGGGTAGTGCTAG | -0.474 z-score
TCACATTTTTTTATCAAACTGTGCTAG | 0.992 z-score
TTACATCTCAGTCTCGATTAGTGCTAG | 1.49 z-score
TGAGGTATCGACTTTCGGTTAGTGCTA | 9.88 z-score
TTAGGTCTCGGACTGGGCTAGTGCTAG | -0.437 z-score
TTAAGTTTCCTACTGCTTTAGTGCTAG | 1.11 z-score
TTACATTTCAGTTCCGATTAGTGCTAG | 3.32 z-score
GTAGATTTCAGACTGGATTAGTGCTAG | 0.227 z-score
TCAGCATTTTTTTTATCACTGTGCTAG | 0.968 z-score
AACTTGGCAGGAGCGAATGGGTGCTAG | -0.58 z-score
GTCGATCTCAGTCTCGAGACGTGCTAG | 0.185 z-score
GATGGTTTCCTTATCCTGACGTGCTAG | 1.1 z-score
TTAGGGATCGACTTTCGGTTAGTGCTA | 9.66 z-score
ATCGATTTCTTCCCTGTGAAAGTGCTA | 1.8 z-score
TACTCTACAGGGTTTCACTTTGTGCTA | 1.32 z-score
CTTTCTATGTCTGTTTTTGCGTGCTAG | 2.89 z-score
GAGGGTCTCCTACTGCTGACGTGCTAG | -0.53 z-score
TCAAGGGTCTGTTTGGGACTGTGCTAG | -0.331 z-score
GACGGACTGGACTTTCGGGTCGTGCTA | 6.03 z-score
AAGGAAGGACCATCCAGAGAGTGCTAG | -0.483 z-score

Study 5 — technique: RNA Bind-n-Seq; molecule type: RNA; matrix: in vitro; concentration: 365 nM; baseline: no-protein control; reading: higher = stronger binding
Target: RNA binding protein fox-1 homolog 2, RRM domain, GST-SBP tag (RBFOX2, Homo sapiens, UniProt O43251-10, residues 100-194)
Setting: natural RNA segment, single round, ends assumed
All sequences stand within: GGGAGUUCUACAGUCCGACGAUC … UGGAAUUCUCGGGUGCCAA
Target sequence (chain): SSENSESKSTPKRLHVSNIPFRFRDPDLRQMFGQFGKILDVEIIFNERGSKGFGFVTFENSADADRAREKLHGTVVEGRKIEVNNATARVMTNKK
Sequence | RBNS enrichment (R)
UGCCUAGCUGGUGAUCACACAGCCUGGCCUGUACCUGCACCCCACUGGAUGGUGGUACAUGGUGGCAGGGACAGGACCACACCCAGUUAAGGCCAGACCAGGCUGAGUGU | 0.465
AUUCCAUAUUAAUACAAGGGGUUUGAACUGGACAUCCUAAUGAUGCAAUUACGUCAUCACCCAGCUGAUUCCGGGUGGUUGGCAAACUCAUCGUGUCUGUCCUGAGAGGC | 0.242
CGUGCCCGGCCUGCAAACACAUUUUAAUUGACAACACUAGGGCUGUUGUACAAAAUAGUAAUGAUAGCCAUGGAAGUUUUACCUUAUUCUGUGAGAAGUGUUCUUAAACU | 0.605
CUUGCUGCCAGCCAAAUAAAUUGGUGUUUAGUGAACAUUUUCAGUGUUUCCCCGCCAUGCAAAGCUUGGCGCCUUGGGAGAAAUGUGUGUAAAUGUACAUUGUAUAGGUA | 0.388
UACAUGCAAAGCAAUAUCUUGUUCAGGUUAGUACCCGCAAAACGGGACAUAGUAUGUGACAAUCUGCAUCGAUCAUGGACUACUAAAUGCCUUUACAUAGAAGGGCUCUG | 0.315
GGCCAUCUUUAAUGUGGGCACCAGAGACUCGGAGCGGUCCUUUUGCUUCAAAGACAGGAGUUCACUGGGGGAUUCAGAAAGCUUGCCGUUUAUGUUGGUCGCAUCAAACA | 1.59
CACACACACACCAUUUUAGGAAGUGGUUCUCCUACUGGAAAAUAUGCUACAGAAUGAAAGUUUGUAAUUGAAAGAAAAAGAAUGUAUUCAUCUGCUUCUUGGGUUUAAGC | 0.665
GCUUUUUCAUCAAUGGAGAAAUGAAAGGAAAACACAAGCAAGAAAAAAGUUAACUUGUAUUAUGUAUUUUUACUACACUUUUCUUAAAAAUAGAGCAUUGGGAAAACUCU | 0.38
UAGCUAGAAUGGCAUGAUGUCACUGUUCUUUUCCUGUGGCUUUUUAUUGUUGUUUCUCAUCAUUCUCACCUCGAGGAAGAGCAAGAGACUUAACCAGCAGGGCAAAUUCC | 0.363
CCGAAAGAUGUUGUCAUUGGCAAUCUGCAGUUGCAAAGGGGGUAGGGUGGUCUCAGAAGGCACGAGGCUUCCUGCCUCUUCCCUCUUCCUCCUUGUAAGAGCUUCAACCC | 0.352
UCUAAAGAGAGUGAGCAUGAGCUCACUCCAUCACUCGAUGAGAUAAUAUGAGAUUUCUACUUCGGAGAGGCCAAGUCUAAUGAAGAGAAAAAAAGGAAAAGAAGUUGCAA | 0.453
UAUAGACUACUUUCUAUGCAAGACUGAGAUAUGGAAUAGAUAGGAAGAGAUAUGUACUGCUGGGUACAUGGACAGUAAGUGUGUUUUCAGAUGGAGUACCAGCACCGAAA | 0.828

Repeated from above (study 3):
Change | normalised enrichment score
K2I | 0.625
A3L | 0.212
E12V | 1.72
E10D | 1.31
D11T | 1.05
E12D | 1.58
F9T | 0.152
R5C | 0.168
R5Q | 0.0718
L7D | -0.0103
K2P | 1.07
